# Assay results of several laboratories.
# Lines come from different studies, so protocols differ. Several values in a cell are separate wells, animals, samples, runs or records. ± gives the spread as reported.
SMILES,test,test system,setting,scale,quantity,value
CSCC[C@H](NC(=O)[C@H](CCCCN)NC(=O)[C@H](CCCNC(=N)N)NC(=O)[C@H](CO)NC(=O)[C@H](Cc1c[nH]c2ccccc12)NC(=O)[C@H](CCCNC(=N)N)NC(=O)[C@H](CC(C)C)NC(=O)[C@H](CO)NC(C)=O)C(=O)N1CCC[C@H]1C(=O)N[C@@H](CS)C(=O)N[C@H](C(=O)N[C@@H](CO)C(N)=O)C(C)C,"12G5 competition, SUP-T1 cells",human plasma,"20 µM, 8 h, 37 °C",,remaining activity,76 ± 11%
CC(C)[C@@H]1NC(=O)CNC(=O)[C@H](CC(N)=O)NC(=O)[C@H](CCCNC(=N)N)NC(=O)[C@H](Cc2ccc(O)cc2)NC(=O)[C@H](C(C)C)NC(=O)[C@@H](NC(=O)[C@@H](NC(=O)[C@H](CC(N)=O)NC(=O)[C@H](Cc2c[nH]c3ccccc23)NC(=O)[C@H](C)NC(=O)[C@H](Cc2ccccc2)NC(=O)CN)C(C)C)CSSC[C@@H](C(=O)N[C@@H](Cc2cnc[nH]2)C(=O)N[C@@H](CCCNC(=N)N)C(=O)N[C@@H](CCCNC(=N)N)C(=O)N[C@@H](C)C(=O)N[C@@H](CC(N)=O)C(N)=O)NC(=O)[C@H](C(C)C)NC(=O)[C@H](CCCNC(=N)N)NC1=O,HPLC,trypsin,"2560 µM, 4.00 h, with: trypsin 1 % w/v",,remaining peptide,2.4% and 1.08% and 5.46%
C/C(=C\CCP(=O)(OCOC(=O)CC1CCOCC1)Oc1ccc(C(C)C)cc1)CO (stereo not drawn),,50% Sprague-Dawley rat plasma,"100 µM, 2 h, pH 7.5, 37 °C",,remaining compound,0%
CC(C)C[C@@H]1NC(=O)CNC(=O)[C@H](CC(N)=O)NC(=O)[C@H](CCCNC(=N)N)NC(=O)[C@H]([C@@H](C)O)NC(=O)[C@@H]2CSSC[C@@H]3NC(=O)[C@H]([C@@H](C)O)NC(=O)CNC(=O)CNC(=O)[C@H](C(C)C)NC(=O)[C@@H]4CSSC[C@H](NC(=O)[C@H](CCCCN)NC(=O)[C@H](CSSC[C@H](NC(=O)[C@H](C(C)C)NC(=O)[C@@H]5CCCN5C1=O)C(=O)NCC(=O)N[C@@H](CCC(=O)O)C(=O)N[C@@H]([C@@H](C)O)C(=O)N4)NC(=O)CNC(=O)[C@@H]1CCCN1C(=O)[C@H]([C@@H](C)O)NC(=O)[C@H](CC(N)=O)NC3=O)C(=O)N[C@@H](CO)C(=O)N[C@@H](Cc1c[nH]c3ccccc13)C(=O)N1CCC[C@H]1C(=O)N[C@@H](C(C)C)C(=O)N2,HPLC,ammonium bicarbonate 0.1 M,"180 µM, 14 days, pH 9.0, 37 °C, deamidation stability",,remaining peptide,61.3 ± 1.6%
CC(=O)OC/C(C)=C/CCP(=O)(OCOC(=O)CC1CCOCC1)Oc1cccc2ccccc12 (stereo not drawn),,50% Sprague-Dawley rat plasma,"100 µM, 2 h, pH 7.5, 37 °C",,remaining compound,13%
CC(C)C[C@@H]1NC(=O)CNC(=O)[C@H](CCCCN)NC(=O)[C@H](CCCNC(=N)N)NC(=O)[C@H]([C@@H](C)O)NC(=O)[C@@H]2CSSC[C@@H]3NC(=O)[C@H]([C@@H](C)O)NC(=O)CNC(=O)CNC(=O)[C@H](C(C)C)NC(=O)[C@@H]4CSSC[C@H](NC(=O)[C@H](CCCCN)NC(=O)[C@H](CSSC[C@H](NC(=O)[C@H](C(C)C)NC(=O)[C@@H]5CCCN5C1=O)C(=O)NCC(=O)N[C@@H](CCC(=O)O)C(=O)N[C@@H]([C@@H](C)O)C(=O)N4)NC(=O)CNC(=O)[C@@H]1CCCN1C(=O)[C@H]([C@@H](C)O)NC(=O)[C@H](CC(N)=O)NC3=O)C(=O)N[C@@H](CO)C(=O)N[C@@H](Cc1c[nH]c3ccccc13)C(=O)N1CCC[C@H]1C(=O)N[C@@H](C(C)C)C(=O)N2,HPLC,ammonium bicarbonate,"180 µM, 7 days, pH 9.0, 25 °C, deamidation stability",,remaining peptide,100%
CCCCN1CCC(COC(=O)c2ccc(N)c(O[11CH3])c2)CC1,,rhesus monkey plasma,30 min,,remaining parent compound,80%
CC[C@@H](C)[C@@H](NC(=O)[C@@H](Cc1ccc(O)cc1)NC(=O)[C@H]1CCCN1C(=O)[C@@H](CCCNC(=N)N)NC(=O)[C@H](N)Cc1c[nH]cn1)C(=O)N[C@H](C)C(=O)N[C@H](Cc1c[nH]cn1)C(=O)N[C@H](CCCNC(=N)N)C(=O)N[C@@H](C(=O)N[C@H](Cc1ccc(O)cc1)C(=O)N[C@H](CO)C(=O)N[C@H](Cc1ccccc1)C(N)=O)C(C)C,,10% human serum,1 h,,remaining compound,103% and 100% and 102%
CC(C)C[C@@H]1NC(=O)CNC(=O)[C@H](CC(N)=O)NC(=O)[C@H](CCCNC(=N)N)NC(=O)[C@H]([C@@H](C)O)NC(=O)[C@@H]2CSSC[C@@H]3NC(=O)[C@H](CCCCN)NC(=O)CNC(=O)CNC(=O)[C@H](C(C)C)NC(=O)[C@@H]4CSSC[C@H](NC(=O)[C@H]([C@@H](C)O)NC(=O)[C@H](CSSC[C@H](NC(=O)[C@H](C(C)C)NC(=O)[C@@H]5CCCN5C1=O)C(=O)NCC(=O)N[C@@H](CCC(=O)O)C(=O)N[C@@H]([C@@H](C)O)C(=O)N4)NC(=O)CNC(=O)[C@@H]1CCCN1C(=O)[C@H]([C@@H](C)O)NC(=O)[C@H](CC(N)=O)NC3=O)C(=O)N[C@@H](CO)C(=O)N[C@@H](Cc1c[nH]c3ccccc13)C(=O)N1CCC[C@H]1C(=O)N[C@@H](C(C)C)C(=O)N2,HPLC,ammonium bicarbonate 0.1 M,"180 µM, 7 days, pH 9.0, 37 °C, deamidation stability",,remaining peptide,72.7 ± 2.9%
CC[C@H](C)[C@H](NC(=O)[C@H](CCCCN)NC(=O)[C@H](CCCCN)NC(=O)CNC(=O)[C@H](CCCCN)NC(=O)[C@H](CC(C)C)NC(=O)[C@H](CCCCN)NC(=O)[C@H](CCCNC(=N)N)NC(=O)[C@@H](NC(=O)[C@H](CC(C)C)NC(=O)[C@H](CCCNC(=N)N)NC(=O)[C@@H](N)CCCNC(=N)N)[C@@H](C)CC)C(=O)N[C@@H](Cc1ccc(O)cc1)C(=O)N[C@@H](CC(C)C)C(=O)N[C@@H](Cc1ccc(O)cc1)C(=O)N[C@@H](Cc1ccccc1)C(=O)N[C@@H](CCCCN)C(=O)N[C@@H](CC(C)C)C(=O)N[C@@H](CCC(N)=O)C(=O)N[C@@H](CC(C)C)C(=O)N[C@@H](CC(C)C)C(=O)N[C@@H](CCCCN)C(=O)N[C@@H](CCCCN)C(N)=O,LC-MS,25% human serum,"200 µM, 60 h, 37 °C",,remaining intact peptide,74 ± 3%
COc1cc(N2CC[C@@]3(O)C(=O)c4cc(C)c(C)cc4N=C23)ccn1,,aqueous solution,"24 h, bright light",,remaining parent compound,93%
CC(C)C[C@@H]1NC(=O)CNC(=O)[C@H](CC(N)=O)NC(=O)[C@H](CCCNC(=N)N)NC(=O)[C@H]([C@@H](C)O)NC(=O)[C@@H]2CSSC[C@@H]3NC(=O)[C@H]([C@@H](C)O)NC(=O)CNC(=O)CNC(=O)[C@H](C(C)C)NC(=O)[C@@H]4CSSC[C@H](NC(=O)[C@H]([C@@H](C)O)NC(=O)[C@H](CSSC[C@H](NC(=O)[C@H](C(C)C)NC(=O)[C@@H]5CCCN5C1=O)C(=O)NCC(=O)N[C@@H](CCC(=O)O)C(=O)N[C@@H]([C@@H](C)O)C(=O)N4)NC(=O)CNC(=O)[C@@H]1CCCN1C(=O)[C@H]([C@@H](C)O)NC(=O)[C@H](CC(N)=O)NC3=O)C(=O)N[C@@H](CO)C(=O)N[C@@H](Cc1c[nH]c3ccccc13)C(=O)N1CCC[C@H]1C(=O)N[C@@H](CCCCN)C(=O)N2,HPLC,ammonium bicarbonate 0.1 M,"180 µM, 14 days, pH 9.0, 37 °C, deamidation stability",,remaining peptide,30.1 ± 5.9%
CSCC[C@H](NC(=O)[C@H](CCCNC(=N)N)NC(=O)[C@H](CCCNC(=N)N)NC(=O)[C@H](CCCCN)NC(=O)[C@H](C)NC(=O)[C@H](CCCNC(=N)N)NC(=O)CNC(=O)[C@@H](NC(=O)CCNC(=O)c1ccc2c(c1)C(=O)OC21c2ccc(O)cc2Oc2cc(O)ccc21)[C@@H](C)O)C(=O)N[C@@H](CSCB(O)O)C(=O)N[C@@H](Cc1ccc(O)cc1)C(=O)N[C@@H](CSCB(O)O)C(=O)N[C@@H](CCCNC(=N)N)C(=O)N[C@@H](CCCNC(=N)N)C(N)=O,HPLC peak area,50% human serum,"100 µM, 12 h, pH 7.4, 37 °C",baseline: 0 h,remaining peptide,50.6% and 47.4% and 50%
CC[C@@H](C)[C@@H](NC(=O)[C@@H](Cc1ccc(O)cc1)NC(=O)[C@H]1CCCN1C(=O)[C@@H](CCCNC(=N)N)NC(=O)[C@H](N)Cc1c[nH]cn1)C(=O)N[C@H](C)C(=O)N[C@H](Cc1c[nH]cn1)C(=O)N[C@H](CCCNC(=N)N)C(=O)N[C@H](CCCCNC(=O)c1cccc(S(=O)(=O)F)c1)C(=O)N[C@H](Cc1ccc(O)cc1)C(=O)N[C@H](CO)C(=O)N[C@H](Cc1ccccc1)C(N)=O,,10% human serum,4 h,,remaining compound,110% and 109%
CSCC[C@H](NC(=O)[C@H](CCCCN)NC(=O)[C@H](CCCNC(=N)N)NC(=O)[C@H](CO)NC(=O)[C@H](Cc1c[nH]c2ccccc12)NC(=O)[C@H](CCCNC(=N)N)NC(=O)[C@H](CC(C)C)NC(=O)[C@H](N)Cc1ccccc1)C(=O)N1CCC[C@H]1C(=O)N[C@@H](CS)C(=O)N[C@H](C(=O)N[C@@H](CO)C(N)=O)C(C)C,"12G5 competition, SUP-T1 cells",human plasma,"concentration not given, 2 h",,remaining activity,66 ± 6%

# Some of these lines once more:
SMILES,test,test system,setting,scale,quantity,value
CC(C)C[C@@H]1NC(=O)CNC(=O)[C@H](CC(N)=O)NC(=O)[C@H](CCCNC(=N)N)NC(=O)[C@H]([C@@H](C)O)NC(=O)[C@@H]2CSSC[C@@H]3NC(=O)[C@H](CCCCN)NC(=O)CNC(=O)CNC(=O)[C@H](C(C)C)NC(=O)[C@@H]4CSSC[C@H](NC(=O)[C@H]([C@@H](C)O)NC(=O)[C@H](CSSC[C@H](NC(=O)[C@H](C(C)C)NC(=O)[C@@H]5CCCN5C1=O)C(=O)NCC(=O)N[C@@H](CCC(=O)O)C(=O)N[C@@H]([C@@H](C)O)C(=O)N4)NC(=O)CNC(=O)[C@@H]1CCCN1C(=O)[C@H]([C@@H](C)O)NC(=O)[C@H](CC(N)=O)NC3=O)C(=O)N[C@@H](CO)C(=O)N[C@@H](Cc1c[nH]c3ccccc13)C(=O)N1CCC[C@H]1C(=O)N[C@@H](C(C)C)C(=O)N2,HPLC,ammonium bicarbonate 0.1 M,"180 µM, 7 days, pH 9.0, 37 °C, deamidation stability",,remaining peptide,72.7 ± 2.9%
